Experimental data pooled from the literature.
Organism: Staphylococcus aureus

c1ccc(CN2CCOCCOCCN(CCCCCCCCCCCCCCN3CCOCCOCCN(CCCCCCCCCCCCCCN4CCOCCOCCN(Cc5ccccc5)CCOCCOCC4)CCOCCOCC3)CCOCCOCC2)cc1
MIC (microbial growth; MRSA USA100; drug-resistant strain): 1.5 µM

CN(C)c1cc(CNC(=O)C(C)(C)C)c(O)c2c1C[C@H]1C[C@H]3[C@H](N(C)C)C(O)=C(C(N)=O)C(=O)[C@@]3(O)C(O)=C1C2=O
MIC (RN4250, Tet K efflux): 2 µg/mL

COc1cc2c(=O)c(C(=O)NCCNCCO)cn(Cc3ccccc3)c2cc1OCc1ccc(C(C)(C)C)cc1
MIC (ATCC 43300 MRSA; ≥80% growth inhibition): < 0.25 µg/mL

CCC1(C)CCN(Cc2cc(N(C)C)c3c(c2O)C(=O)C2=C(O)[C@]4(O)C(=O)C(C(N)=O)=C(O)[C@@H](N(C)C)[C@@H]4C[C@@H]2C3)CC1
MIC (microbial growth, broth dilution): 1 µg/mL

Oc1c(Br)cc(Br)c2nc3cc(Cc4ccccc4)ccc3nc12
MIC (broth microdilution; MRSA 1707; 16 h, 37 °C): 0.3 µM

CO[C@@H](C(N)=O)[C@H](NC(=O)c1ccc(NC(=O)c2ccc([N+](=O)[O-])cc2)cc1)C(=O)Nc1ccc(C(=O)Nc2ccc(C(=O)Nc3ccc(C(=O)O)cc3)c(O)c2OC(C)C)cc1
MIC (microbial growth; ATCC29213): 0.5 µg/mL

CCCCCCCCCCCCCCCCCCSCC1OC(OC2C(N)CC(N)C(OC3OC(CN)C(O)CC3N)C2O)C(O)C(N)C1O (stereo not shown)
MIC (methicillin-resistant): 18.8 µg/mL

CCCCCCCc1nc2ccccc2c(=O)n1OC
MIC (broth microdilution; RN6390B): > 100 µM

CC[C@H](C)[C@H](N)C1=N[C@H](C(=O)N[C@@H](CC(C)C)C(=O)N[C@H](CCC(=O)O)C(=O)N[C@H](C(=O)N[C@H]2CCCCNC(=O)[C@H](CC(N)=O)NC(=O)[C@@H](CC(=O)O)NC(=O)[C@H](Cc3c[nH]cn3)NC(=O)[C@@H](Cc3ccccc3)NC(=O)[C@H]([C@@H](C)CC)NC(=O)[C@@H](CCCN)NC2=O)[C@@H](C)CC)CS1
MIC (broth microdilution; ATCC 29213, LB medium; 18 h, 37 °C, with: ZnSO4 0.3 mM): 2 µg/mL

COc1ccc(NC(=O)CSc2nc3ccccc3c(=O)n2-c2ccc(S(N)(=O)=O)cc2)cc1
MIC (methicillin-resistant; 24 h, 37 °C): 7.81 µg/mL

CN(Cc1cc(N(C)C)c2c(c1O)C(=O)C1=C(O)[C@]3(O)C(=O)C(C(N)=O)=C(O)[C@@H](N(C)C)[C@@H]3C[C@@H]1C2)CC(C)(C)C
MIC (microbial growth, broth dilution): 0.5 µg/mL

CCCCc1ccc(N2C(=O)/C(=N\NC(=N)N)c3ccccc32)cc1
MIC (microbial growth, broth dilution; 18 h): 6 µg/mL

CN(C)c1cc(CNCc2ccncc2)c(O)c2c1C[C@H]1C[C@H]3[C@H](N(C)C)C(O)=C(C(N)=O)C(=O)[C@@]3(O)C(O)=C1C2=O
MIC (MRSA 5, Tet M ribosome protection): 4 µg/mL

C=CCO[C@H]1[C@H](O)[C@@H](N)[C@@H](O[C@H]2[C@H](O[C@@H]3O[C@H](CO)[C@@H](O[C@H]4O[C@@H](CN)[C@@H](O)[C@H](O)[C@H]4N)[C@H]3O)[C@@H](O)[C@H](N)C[C@@H]2N)O[C@@H]1CO
MIC (broth microdilution; MRSA isolate AG 045): 8 to 16 µg/mL

CCN(CC)CCCN1/C(=C/c2cc(C)[n+](C)c3ccccc23)Sc2ccccc21
MIC (microbial growth, broth dilution; ATCCBAA1720 MRSA): 8 µg/mL

CN(C)Cc1cc(N(C)C)c2c(c1O)C(=O)C1=C(O)[C@]3(O)C(=O)C(C(N)=O)=C(O)[C@@H](N(C)C)[C@@H]3C[C@@H]1C2
MIC (MRSA 5, Tet M ribosome protection): 1 µg/mL

COC1COC(=O)N1/N=C/c1ccc([N+](=O)[O-])o1 (stereo not shown)
MIC (microbial growth, broth dilution; ATCC29213; 18 h): > 50 µg/mL

CN(C)c1cc(CN2CCCCC2)c(O)c2c1C[C@H]1C[C@H]3[C@H](N(C)C)C(O)=C(C(N)=O)C(=O)[C@@]3(O)C(O)=C1C2=O
MIC (microbial growth, broth dilution): 0.125 µg/mL

CNC(CC(C)C)C(=O)NC1C(=O)NC(CC(N)=O)C(=O)NC2C(=O)NC3C(=O)NC(C(=O)NC(C(=O)O)c4cc(O)cc(O)c4-c4cc3ccc4O)C(O)c3ccc(c(Cl)c3)Oc3cc2cc(c3OC2OC(CO)C(O)C(O)C2OC2CC(C)(NC(=O)CCCCCCCCC[N+]3(C)CCOCC3)C(O)C(C)O2)Oc2ccc(cc2Cl)C1O (stereo not shown)
MIC (agar dilution; MRSA clinical isolate MRSA4): 128 µg/mL

S=c1n(CN2CCN(c3ccccn3)CC2)nc(C23CC4CC(CC(C4)C2)C3)n1-c1ccccc1
MIC (two-fold dilution; IFO 3060; 24 h, 36 °C): 0.5 µg/mL

CCCCCCCCCc1nc2ccccc2c(=O)n1N
MIC (broth microdilution; RN6390B): > 100 µM

COCO[C@H]1[C@H](O)[C@@H](N)[C@@H](O[C@H]2[C@H](O[C@@H]3O[C@H](CO)[C@@H](O[C@H]4O[C@@H](CN)[C@@H](O)[C@H](O)[C@H]4N)[C@H]3O)[C@@H](O)[C@H](N)C[C@@H]2N)O[C@@H]1CO
MIC (broth microdilution; MRSA isolate AG 039): 64 µg/mL

C[n+]1ccc(/C=C2\Sc3ccccc3N2CCCN2CCCC2)c2ccccc21
MIC (microbial growth, broth dilution; MRSA): 16 µg/mL

COc1c(CC=C(C)C)c(O)cc2c1[C@@H]1Oc3c(ccc(O)c3CC=C(C)C)[C@@H]1CO2
MIC (ATCC 25923): 64 µg/mL

O=[N+]([O-])c1ccc2c(c1)C=[N+]1N3C(=[O+][Cu-2]1([Cl])[O]2)c1ccccc1NC3c1cc([N+](=O)[O-])ccc1O (stereo not shown)
MIC (broth microdilution; ATCC 29213; 24 h, 37 °C): 16 µg/mL

C/C(=N\NC1=NC(=O)CS1)c1ccc2c(c1)sc1nc(=O)c(C#N)cn12
MIC (microbial growth, broth dilution): < 48 µg/mL

CC(C)C[C@H](NC(=O)[C@H](CC(N)=O)NC(=O)[C@H](CCCNC(=N)N)NC(=O)[C@@H](CC(C)C)NC(=O)[C@H](Cc1ccccc1)NC(=O)[C@H](CC(=O)O)NC(=O)[C@H](CCCCN)NC(=O)[C@@H](CC(C)C)NC(=O)[C@H](CCCNC(=N)N)NC(=O)[C@H](CCC(N)=O)NC(=O)[C@@H](NC(=O)[C@@H](CC(C)C)NC(=O)[C@H](CCCNC(=N)N)NC(=O)[C@H](CCCCN)NC(=O)[C@H](Cc1ccc(C(F)(F)F)cc1)NC(=O)CN)C(C)C)C(=O)N[C@H](C(N)=O)C(C)C
MIC (broth microdilution; USA300 LAC, MRSA): 25 µM

COC1(C)CC2C=CC3C(C)C=CC=CC(C)OC(=O)C(C)C(=O)C(Cl)(Cl)C(=O)C3C2C(C)C1O (stereo not shown)
MIC (microbial growth, broth dilution; NEWMAN): 4 to 8 µg/mL

CNC(CC(C)C)C(=O)NC1C(=O)NC(CC(N)=O)C(=O)NC2C(=O)NC3C(=O)NC(C(=O)NC(C(=O)O)c4cc(O)cc(O)c4-c4cc3ccc4O)C(O)c3ccc(c(Cl)c3)Oc3cc2cc(c3OC2OC(CO)C(O)C(O)C2OC2CC(C)(NC(=O)CCCCCCCC[N+]3(C)CCOCC3)C(O)C(C)O2)Oc2ccc(cc2Cl)C1O (stereo not shown)
MIC (agar dilution; MRSA clinical isolate MRSA4): 32 µg/mL

COC1CCN(Cc2cc(N(C)C)c3c(c2O)C(=O)C2=C(O)[C@]4(O)C(=O)C(C(N)=O)=C(O)[C@@H](N(C)C)[C@@H]4C[C@@H]2C3)CC1
MIC (RN4250, Tet K efflux): 1 µg/mL

O=C(CCc1cc(O)c(O)c(O)c1)NCCCCCCCCCC[P+](c1ccccc1)(c1ccccc1)c1ccccc1
MIC (broth microdilution; XU212 MRSA TetK; 24 h): 16 µg/mL

A few entries again:
CC[C@H](C)[C@H](N)C1=N[C@H](C(=O)N[C@@H](CC(C)C)C(=O)N[C@H](CCC(=O)O)C(=O)N[C@H](C(=O)N[C@H]2CCCCNC(=O)[C@H](CC(N)=O)NC(=O)[C@@H](CC(=O)O)NC(=O)[C@H](Cc3c[nH]cn3)NC(=O)[C@@H](Cc3ccccc3)NC(=O)[C@H]([C@@H](C)CC)NC(=O)[C@@H](CCCN)NC2=O)[C@@H](C)CC)CS1
MIC (broth microdilution; ATCC 29213, LB medium; 18 h, 37 °C, with: ZnSO4 0.3 mM): 2 µg/mL

COc1ccc(NC(=O)CSc2nc3ccccc3c(=O)n2-c2ccc(S(N)(=O)=O)cc2)cc1
MIC (methicillin-resistant; 24 h, 37 °C): 7.81 µg/mL

CN(Cc1cc(N(C)C)c2c(c1O)C(=O)C1=C(O)[C@]3(O)C(=O)C(C(N)=O)=C(O)[C@@H](N(C)C)[C@@H]3C[C@@H]1C2)CC(C)(C)C
MIC (microbial growth, broth dilution): 0.5 µg/mL
